# Measurements from different studies.
# A part holds a random share of what one study measured. Changes are numbered by the printed parent chain.
# Chain of UniProt P28223 (whole entry, looked up): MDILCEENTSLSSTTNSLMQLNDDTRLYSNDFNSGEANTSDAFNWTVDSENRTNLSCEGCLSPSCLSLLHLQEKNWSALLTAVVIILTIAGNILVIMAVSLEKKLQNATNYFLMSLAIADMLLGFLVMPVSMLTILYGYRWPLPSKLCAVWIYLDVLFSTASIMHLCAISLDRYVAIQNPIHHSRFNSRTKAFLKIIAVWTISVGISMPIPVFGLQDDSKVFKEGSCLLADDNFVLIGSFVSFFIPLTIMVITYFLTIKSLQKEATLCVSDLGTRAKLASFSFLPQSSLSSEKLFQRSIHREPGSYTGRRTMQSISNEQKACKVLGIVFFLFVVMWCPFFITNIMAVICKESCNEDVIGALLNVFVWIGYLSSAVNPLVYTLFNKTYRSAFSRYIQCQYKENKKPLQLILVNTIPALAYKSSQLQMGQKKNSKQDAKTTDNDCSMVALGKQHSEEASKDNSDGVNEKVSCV
# Chain of UniProt Q59H18 (whole entry, looked up): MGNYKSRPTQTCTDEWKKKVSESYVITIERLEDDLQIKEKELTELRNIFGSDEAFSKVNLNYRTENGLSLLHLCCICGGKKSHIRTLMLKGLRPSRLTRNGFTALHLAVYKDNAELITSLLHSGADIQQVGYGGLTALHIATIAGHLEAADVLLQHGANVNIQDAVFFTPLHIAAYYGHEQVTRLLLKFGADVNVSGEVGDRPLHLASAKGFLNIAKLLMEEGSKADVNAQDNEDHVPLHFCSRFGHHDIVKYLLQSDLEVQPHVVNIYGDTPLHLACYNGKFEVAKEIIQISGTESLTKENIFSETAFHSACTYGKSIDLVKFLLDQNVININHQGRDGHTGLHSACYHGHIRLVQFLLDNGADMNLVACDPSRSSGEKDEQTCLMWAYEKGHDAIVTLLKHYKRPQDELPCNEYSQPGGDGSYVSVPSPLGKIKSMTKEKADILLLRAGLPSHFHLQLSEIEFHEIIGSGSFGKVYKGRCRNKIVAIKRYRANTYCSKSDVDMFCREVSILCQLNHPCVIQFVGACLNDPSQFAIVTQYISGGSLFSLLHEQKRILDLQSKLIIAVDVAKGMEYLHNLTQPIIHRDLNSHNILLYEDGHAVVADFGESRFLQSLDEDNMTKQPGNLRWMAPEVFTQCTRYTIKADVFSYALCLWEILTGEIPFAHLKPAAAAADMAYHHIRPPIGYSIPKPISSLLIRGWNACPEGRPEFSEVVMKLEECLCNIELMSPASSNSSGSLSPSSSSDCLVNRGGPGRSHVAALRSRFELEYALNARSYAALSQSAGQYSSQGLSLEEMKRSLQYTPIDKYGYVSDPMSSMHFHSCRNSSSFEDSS

# Series 1 — cell line: HEK-293T/ACE2; method: Hoechst nuclei count; tested at: concentration not given; time: 16 (unit not given); baseline: vehicle
SMILES,viability [%]
COC(=O)[C@@H]1CC2=CC(=O)CC[C@]2(C)[C@@]23O[C@@H]2C[C@@]2(C)[C@@H](CC[C@@]24CCC(=O)O4)[C@H]13,99.9
CO[C@H]1/C=C/O[C@@]2(C)Oc3c(C)c(O)c4c(c3C2=O)C2=NC3(CCN(CC(C)C)CC3)NC2=C(NC(=O)/C(C)=C\C=C\[C@H](C)[C@H](O)[C@@H](C)[C@@H](O)[C@@H](C)[C@H](OC(C)=O)[C@@H]1C)C4=O,99.7
CCc1c2c(nc3ccc(OC(=O)N4CCC(N5CCCCC5)CC4)cc13)-c1cc3c(c(=O)n1C2)COC(=O)[C@]3(O)CC,83.1
CN(C)CC/C=C1/c2ccccc2Sc2ccc(Cl)cc21,98.1

# Series 2 — target: CCND2, cyclin fold, Cln2 fusion (human); method: yeast growth competition, sequencing; sample: yeast; notes: strong parent motif; baseline: not given; reading: higher = stronger binding; starting sequence: viral docking peptide; YKVKRRLVFGADD
Change,normalised enrichment score
K2I,0.603
D12S,0.64
K2D,1.25
V8G,-0.227
V3R,0.326
A11I,1.28
A11G,1.56
L7H,0.0401

# Series 3 — observed: peptide-MHC binding; form: peptide; tested at: concentration not given
# Target: HLA class I histocompatibility antigen, A alpha chain, allele A*80:01 (Homo sapiens, UniProt P04439)
Molecule,binding
TTEANAGQF,inactive
NTIEELSGY,inactive
EAEKQLQQY,inactive
FSFFMNENF,inactive
NVMDPMHGA,inactive
IQKGMFVVK,inactive
LPLKMLNIPSINVH,inactive
KLHCTERSL,inactive

# Mixed results
SMILES,target,observed,method,tested at,measurement,result
CC(=O)N1CCC(c2ccc(C(=O)NC3=NCCN3)cc2C(F)(F)F)CC1,"SLC6A4 (Homo sapiens, UniProt P31645)",ligand displacement,,10 µM,inhibition,11.8%
CCCCN(CCCC)C(=O)CN1C[C@@H](c2cc(OC)c3c(c2)OCO3)[C@H](C(=O)O)[C@H]1CC(C)(C)CCC,"TNNI3K (Homo sapiens, UniProt Q59H18)",cell-free assay,competition with immobilised ligand,1 µM,remaining binding,95.9%
CNCc1ccccc1-c1csc([C@H](C)Nc2nc(C)nc3cc(OC)c(OC)cc23)c1,"HTR2A (Homo sapiens, UniProt P28223)",binding,radioligand binding,10 µM,inhibition,99.2%

# Repeated from above (mixed results):
SMILES,target,observed,method,tested at,measurement,result
CC(=O)N1CCC(c2ccc(C(=O)NC3=NCCN3)cc2C(F)(F)F)CC1,"SLC6A4 (Homo sapiens, UniProt P31645)",ligand displacement,,10 µM,inhibition,11.8%
CCCCN(CCCC)C(=O)CN1C[C@@H](c2cc(OC)c3c(c2)OCO3)[C@H](C(=O)O)[C@H]1CC(C)(C)CCC,"TNNI3K (Homo sapiens, UniProt Q59H18)",cell-free assay,competition with immobilised ligand,1 µM,remaining binding,95.9%
CNCc1ccccc1-c1csc([C@H](C)Nc2nc(C)nc3cc(OC)c(OC)cc23)c1,"HTR2A (Homo sapiens, UniProt P28223)",binding,radioligand binding,10 µM,inhibition,99.2%
